Measurements from different studies.
Every numbered part comes from another study and shows a few of its results, in no order. Changes are numbered by the printed parent chain.

Sample 1
Target: Fragile X messenger ribonucleoprotein 1, C-terminal low-complexity region (Fmr1, Mus musculus, UniProt P35922)
Technique: RNA Bind-n-Seq
Molecule type: RNA
Sample: in vitro
Tested at: 200 nM
Notes: whole 134-nt RNA, ends assumed
Added: 150 mM LiCl
Baseline: input library
Direction: higher = stronger binding
Each molecule: 7-deaza-guanosine replaces G
The log2 enrichment of `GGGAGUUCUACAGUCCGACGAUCCCUGUGCUACACAUCGUAUGUACCGAAUCAAAUUUUUUUAAAUUUUUUUAAACCCCCAAAAAAGUAUUAUGUUACGCCGUUCGGAUCUGCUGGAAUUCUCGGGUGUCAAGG` is reported as 0.0838.
With `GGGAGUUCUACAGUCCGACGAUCGUCCUGUGCUACACAUCGUAUGUACCGAAUCGGGAAAAAGGGUUUGGGUUUUUUUGGGAAAGUAUUAUGUUACGCCGUUCGGAUCUGCACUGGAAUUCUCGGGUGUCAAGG` the log2 enrichment was -2.37.
With `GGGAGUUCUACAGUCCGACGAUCACCAUGCAGGUGGGUAUCUUUGGGAAGUGGGGCAAGGGGGGGAUAGGGAGGGGGGUAACACUUUGGGAACAGGUGGUCCCAGGUCGUUUCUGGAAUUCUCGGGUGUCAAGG` the log2 enrichment was 1.18.
With `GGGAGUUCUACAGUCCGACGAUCUGGGAGGUGGAUUUUGUUUAUUUUUUUAGCUCAUUUCCAGGGGUGGGAAUUUUUUUUUAAUAUGUGUAAUGAAUAAAGUUGUUUUUGAAAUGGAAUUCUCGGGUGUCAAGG` the log2 enrichment was -0.023.
The log2 enrichment of `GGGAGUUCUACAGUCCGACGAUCACCAUGCAGGUGGGCAUCUUUGGGAAGUGGGGCAAGGGGGGGAUAGGGAGGGGGGUAACACUUUGUGAACAGGUGGUCCCAGGUCGUUUCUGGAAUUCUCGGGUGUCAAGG` is reported as 1.48.

Sample 2
Target: Histone acetyltransferase KAT6A, winged helix 1, GST fusion (KAT6A, Homo sapiens, UniProt Q92794, residues 1-85)
Technique: protein binding microarray
Molecule type: double-stranded DNA, one strand shown
Sample: in vitro
Tested at: not given
Notes: 8-mer, flanks averaged, mean of 2 arrays, mostly near background
Baseline: not given
Direction: higher = stronger binding
Target sequence (chain): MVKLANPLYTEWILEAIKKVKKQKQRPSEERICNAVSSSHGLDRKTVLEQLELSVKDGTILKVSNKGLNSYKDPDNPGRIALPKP
For `CAATACTG`, the E-score was -0.122.
The E-score of `AGTTCGGG` is reported as -0.058.
The E-score of `AGGCCACC` is reported as -0.146.
For `ATATAAGA`, the E-score was -0.167.
For `AGAAGTCC`, the E-score was -0.203.
`CCTTGACG` gave an E-score of 0.0771.

Sample 3
Target: CCNE1, cyclin fold, Cln2 fusion (human)
Technique: yeast growth competition, sequencing
Sample: yeast
Notes: strong parent motif
Baseline: not given
Direction: higher = stronger binding
Starting sequence: BRCA2 docking peptide (human); PSIKRNLLNEFDR
`R5G` — result for “normalised enrichment score”: -0.673.
Under “normalised enrichment score”, `I3G` is recorded as 1.72.
For `N9C`, “normalised enrichment score” read 1.53.
`S2M` — result for “normalised enrichment score”: 1.74.
For `L7H`, “normalised enrichment score” read -0.345.

Mixed results
With `PhoQ, residues 284 288 289 292 302 303 AGHLVA` the fold induction was 0.794 (PhoP, residues 12 14 15 18 19 NQAHL (Escherichia coli, UniProt P23836); Sort-seq, item: YFP reporter; E. coli; PhoQ-PhoP variant library, added: 10 µM Mg2+; baseline: high Mg2+ state, higher = stronger signaling).

For quick reference, copied from above (sample 2):
For `CAATACTG`, the E-score was -0.122.
